Experimental data from different studies.
Numbered parts are unrelated; each lists some results of a single study.

Series 1 — target: Sox, HMG box (Pigoraptor chileana); method: Spec-seq; molecule type: double-stranded DNA, one strand shown; matrix: in vitro; concentration: not given; setting: whole probe, mean of replicates; reference: not given; direction: lower = stronger binding; constant ends, left off below: GAGTCGTCTCGTCAGCAC … CCGTAGAGCACTCAGGTC
Residues (chain): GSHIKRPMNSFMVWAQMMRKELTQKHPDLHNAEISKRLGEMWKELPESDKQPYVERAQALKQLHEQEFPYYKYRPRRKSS
Under “relative binding energy”, `TCCGGTT` is recorded as 0.95 ln ratio.
`TTCCGTT` — result for “relative binding energy”: 0.879 ln ratio.
`CATGCAT`: “relative binding energy” 0.64 ln ratio.
`TATGGTT` — result for “relative binding energy”: -0.581 ln ratio.
`CATAGGA` — result for “relative binding energy”: -0.314 ln ratio.
`CTGAGTT`: “relative binding energy” 0.94 ln ratio.
For `CATCGAG`, “relative binding energy” read 0.47 ln ratio.
`CATTCCT`: “relative binding energy” 0.78 ln ratio.

Series 2 — read-out: binding; method: radioligand binding; concentration: 10 µM
Target: Alpha-1A adrenergic receptor (ADRA1A, Homo sapiens, UniProt P35348)
UniProt P35348, sequence (whole entry, looked up): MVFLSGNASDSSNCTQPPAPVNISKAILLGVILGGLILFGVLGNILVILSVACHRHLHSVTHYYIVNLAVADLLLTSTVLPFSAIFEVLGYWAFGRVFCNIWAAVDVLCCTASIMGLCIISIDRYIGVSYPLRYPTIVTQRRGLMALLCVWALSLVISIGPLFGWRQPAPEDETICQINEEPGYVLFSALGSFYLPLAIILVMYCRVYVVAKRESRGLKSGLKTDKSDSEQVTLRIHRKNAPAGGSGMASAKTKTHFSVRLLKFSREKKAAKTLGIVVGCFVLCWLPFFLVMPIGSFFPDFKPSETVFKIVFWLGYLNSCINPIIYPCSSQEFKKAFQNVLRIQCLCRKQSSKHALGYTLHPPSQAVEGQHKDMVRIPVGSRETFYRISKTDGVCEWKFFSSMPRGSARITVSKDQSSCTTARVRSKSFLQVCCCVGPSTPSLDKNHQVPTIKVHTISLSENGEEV
`CC1=C(C#N)C(c2ccc3c(c2)c(NC(=O)c2ccccc2C)nn3C)C(C#N)=C(C)N1` gave an inhibition of 1.96%.
For `Cc1nc(N2CC[C@@H](O)C2)ncc1-c1cc(C(F)(F)F)cc2[nH]ncc12`, the inhibition was 15.7%.
`Nc1c(C(=O)NCc2ccc(C(=O)NCCCC3CCCCC3)cc2)cnn1-c1ccccc1` gave an inhibition of 36.9%.
`COCc1nc2cnc3cc(-c4c(C)noc4C)c(OC[C@H]4CCNC4)cc3c2n1[C@H](C)c1ccccc1` gave an inhibition of 0.31%.
`O[C@]1(C(F)(F)F)CCCC[C@H]1Nc1ccc(F)cc1` gave an inhibition of -8.22%.
With `CNC(=O)Nc1ccc2c(c1)[C@]1(CC2)OC(=O)N(CC(=O)N(Cc2ccc(F)cc2)[C@@H](C)C(F)(F)F)C1=O` the inhibition was 0.04%.
For `COc1cccc(CNC(=O)c2nc3scc(COCc4ccc(C(=O)O)cc4)c3c(=O)[nH]2)c1`, the inhibition was -1.51%.
For `CC(=O)N1CCC(c2ccc(C(=O)NC(=N)N)cc2C(F)(F)F)CC1`, the inhibition was 6.05%.
`Cc1cc(-n2nc(Cc3cc(F)cc(C(F)(F)F)c3)nc2C)ccc1C(N)=O` has an inhibition of -13.5%.
For `Cc1nc(C2CCN(C(=O)c3ccc(OC(F)(F)F)cc3N)CC2)c2ncc(N3CCN(C)CC3)cc2n1`, the inhibition was -9.85%.
`Cc1cc(C)c(-n2ccn3nc(-c4cccnc4)cc23)cc1NC(=O)c1cc(C#N)cc(S(F)(F)(F)(F)F)c1` gave an inhibition of -3.02%.

Series 3 — organism: Plasmodium berghei; mode: inhibitor; cells: Huh-7; strain: liver stage; concentration: 10 µM; time: 24 h; reference: untreated control
For `CCN[C@@H]1C[C@H](N)[C@@H](O[C@H]2OC(CN)=CC[C@H]2N)[C@H](O)[C@H]1O[C@H]1OC[C@](C)(O)[C@H](NC)[C@H]1O`, the infection rate was 56.8%.
`Cc1c(Nc2ncccc2C(=O)O)cccc1C(F)(F)F` has an infection rate of 76.8%.
`NS(=O)(=O)c1cc2c(cc1C(F)(F)F)NCNS2(=O)=O` has an infection rate of 106%.

Mixed results
For `CCCNC1=Nc2ccccc2S(=O)(=O)N1CCC`, the remaining compound was 9.87% (human, microsomes or S9; 2 µM, 0.5 h).
The nuclei count of `CC1CCN(C(c2ccc(F)cc2)c2ccc(C(C)C(=O)O)cc2-c2ccc(C(F)(F)F)cc2)CC1` (stereo not drawn) is reported as 4.32 z-score (mouse MPNST tumor cells; high-content nuclear imaging, measured: cell number; 10 µM, 12 h, mean of 2 replicates; reference: plate mean, higher = more cells).

For quick reference, copied from above (series 2):
`COCc1nc2cnc3cc(-c4c(C)noc4C)c(OC[C@H]4CCNC4)cc3c2n1[C@H](C)c1ccccc1` gave an inhibition of 0.31%.
For `CC(=O)N1CCC(c2ccc(C(=O)NC(=N)N)cc2C(F)(F)F)CC1`, the inhibition was 6.05%.
`O[C@]1(C(F)(F)F)CCCC[C@H]1Nc1ccc(F)cc1` gave an inhibition of -8.22%.
